Measured values of several laboratories.
Protocols differ between the studies behind these lines. ± marks the error that the study gave. Values after ≈ are worked out from the molar mass of the structure shown.
Chain of UniProt O43684 (whole entry, looked up): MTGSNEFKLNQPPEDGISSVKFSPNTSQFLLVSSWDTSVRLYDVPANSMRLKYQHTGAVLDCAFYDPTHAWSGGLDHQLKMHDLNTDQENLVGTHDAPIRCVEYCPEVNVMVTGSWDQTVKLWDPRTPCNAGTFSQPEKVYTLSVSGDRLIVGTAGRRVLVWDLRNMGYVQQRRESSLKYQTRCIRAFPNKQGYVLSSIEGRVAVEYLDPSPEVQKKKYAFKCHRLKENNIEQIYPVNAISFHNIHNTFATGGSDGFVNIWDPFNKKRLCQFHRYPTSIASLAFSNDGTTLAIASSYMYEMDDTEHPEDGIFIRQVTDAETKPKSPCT
Chain of UniProt P35348 (whole entry, looked up): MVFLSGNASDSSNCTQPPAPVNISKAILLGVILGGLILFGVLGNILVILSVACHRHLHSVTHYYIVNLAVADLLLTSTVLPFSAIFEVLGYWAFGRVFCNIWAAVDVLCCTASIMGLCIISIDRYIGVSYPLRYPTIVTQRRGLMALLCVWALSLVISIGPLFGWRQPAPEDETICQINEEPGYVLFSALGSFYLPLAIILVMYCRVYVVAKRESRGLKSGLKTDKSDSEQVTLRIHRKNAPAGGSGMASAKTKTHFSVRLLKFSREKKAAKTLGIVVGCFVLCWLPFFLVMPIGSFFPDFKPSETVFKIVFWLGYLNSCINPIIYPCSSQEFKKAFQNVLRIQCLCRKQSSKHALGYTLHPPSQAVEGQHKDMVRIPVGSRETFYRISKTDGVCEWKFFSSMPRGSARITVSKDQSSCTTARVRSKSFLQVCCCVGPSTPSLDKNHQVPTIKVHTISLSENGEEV
Chain of UniProt P23946 (whole entry, looked up): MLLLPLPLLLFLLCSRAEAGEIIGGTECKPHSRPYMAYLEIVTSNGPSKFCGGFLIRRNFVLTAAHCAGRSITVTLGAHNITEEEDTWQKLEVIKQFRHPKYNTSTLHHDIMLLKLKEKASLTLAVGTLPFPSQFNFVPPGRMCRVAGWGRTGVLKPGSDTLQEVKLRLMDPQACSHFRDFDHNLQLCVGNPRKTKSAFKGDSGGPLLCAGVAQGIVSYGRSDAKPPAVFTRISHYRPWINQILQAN

Compound	target or system	assay	system	conditions	how to read	measurement	value
CN1CCN(c2cc(-c3ccncc3)c(-c3ccc4ccccc4c3)nn2)CC1	Alpha-1A adrenergic receptor (ADRA1A, Homo sapiens, UniProt P35348)	agonist, FLIPR		12.5 µM		activation	-0.7%
CC1(F)CN(C(=O)Cn2c(=O)c(C(=O)NCc3ccc(Cl)cc3)cc3nc(N4CCNC4=O)cnc32)C1	human cytomegalovirus	plaque reduction	AD169 US3-6-EGFP		baseline: CC50 over EC50	selectivity index	> 208
[Cl-].[Cl-].[Pt+2].[Ru+2].c1ccc(-c2nccnc2-c2ccccn2)nc1.c1cnc2c(c1)ccc1cccnc12.c1cnc2c(c1)ccc1cccnc12	Danio rerio		embryos	90 µM, 0 h		survival rate	100%
CN1CCCN(S(=O)(=O)c2ccc(-c3ccc4nncc(Nc5ccc(OCc6cccc(F)c6)c(Cl)c5)c4c3)cc2)CC1	Trypanosoma cruzi		NIH 3T3, 2% FBS medium	96 h	baseline: NIH 3T3 TC50 over T. cruzi EC50	selectivity ratio	12
CC[C@H](C)[C@@H]1NC(=O)[C@@H]2CCCN2C(=O)[C@H](CC(C)C)NC(=O)[C@H](CC(C)C)NC(=O)CNC(=O)[C@@H](NC(=O)[C@@H](NC(=O)[C@H](CC(=O)O)NC(=O)CNC(=O)[C@@H](NC(=O)[C@H](C)NC(=O)CNC(=O)[C@H](CCCCN)NC(=O)[C@H](CC(C)C)NC(=O)[C@H](CC(C)C)NC(=O)[C@H](CCCCN)NC(=O)CNC(=O)[C@@H](NC(=O)[C@@H](N)CC(C)C)C(C)C)C(C)C)C(C)C)CSSC[C@@H](C(=O)O)NC1=O		RNA-seq, measured: Acp5	mouse, traumatic brain injury model, frontal cortex and hippocampus	dose not given	baseline: TBI alone	log2 fold change	-2.22
COc1ccnc(C(=O)N[C@H]2COC(=O)[C@H](Cc3ccccc3)[C@@H](OC(=O)C(C)C)[C@H](C)OC2=O)c1OCOC(=O)C(C)C	Danio rerio	mortality		water exposure, flow-through, 96 h		LC50	0.104 µg/mL (≈ 0.169 µM)
CC[C@H](C)[C@H](NC(=O)[C@H](Cc1ccccc1)NC(=O)[C@H](CCC(=O)O)NC(=O)[C@H](CCCNC(=N)N)NC(=O)[C@H](C)NC(=O)[C@H](C)NC(=O)[C@H](CCC(N)=O)NC(=O)[C@H](CCC(=O)O)NC(=O)[C@H](CCC(=O)O)NC(=O)[C@H](CC(C)C)NC(=O)[C@H](Cc1ccc(O)cc1)NC(=O)[C@H](CO)NC(=O)[C@H](CO)NC(=O)[C@@H](NC(=O)[C@H](CC(=O)O)NC(=O)[C@H](CO)NC(=O)[C@@H](NC(=O)[C@H](Cc1ccccc1)NC(=O)[C@@H](NC(=O)CNC(=O)[C@H](CCC(=O)O)NC(=O)[C@H](C)NC(=O)CCc1c[nH]cn1)[C@@H](C)O)[C@@H](C)O)C(C)C)C(=O)N[C@@H](C)C(=O)N[C@@H](Cc1c[nH]c2ccccc12)C(=O)N[C@@H](CC(C)C)C(=O)N[C@H](C(=O)N[C@@H](CCCNC(=N)N)C(=O)NCC(=O)N[C@@H](CCCNC(=N)N)C(=O)N[C@@H](CCCCNC(=O)COCCOCCNC(=O)COCCOCCNC(=O)CC[C@H](NC(=O)CCCCCCCCCCCCCCCCC(=O)O)C(=O)O)C(=O)NCC(=O)NCC(=O)N[C@@H](CO)C(=O)N[C@@H](CCCCNc1c(NCCCCCN(O)C(=O)CCC(=O)NCCCCCN(O)C(=O)CCC(=O)NCCCCCN(O)C(C)=O)c(=O)c1=O)C(=O)O)C(C)C [zirconium-89 labelled]			rat, bone marrow	iv, 3 nmol/kg, 4 h, ex vivo		tissue uptake	0.94 %ID/g
Cc1cc(C#N)cc(C)c1Oc1nc(Nc2ccc(C#N)cc2)nc(N)c1Br	HIV-1	MTT	MT4, RT A98G/V106I/V179D/Y181C/G333E mutant		baseline: CC50 over EC50	selectivity index	> 6
O=[N+]([O-])c1ccc(N2CCN(CCC(O)c3ccc(F)cc3)CC2)c(C(F)(F)F)c1 (stereo not shown)	Salmonella typhimurium	SOS/umu test	TA1535/pSK1002	0.031 mg/mL, 4 h, with S9, full range		survival	66.9%
C[C@H]1C[C@@H](N2C(=N)N[C@](C)(c3cccc(Nc4ccc(C5CC5)nc4)c3Cl)CC2=O)CCO1	Salmonella typhimurium, Escherichia coli		TA98, TA100, TA1535, TA97a, WP2 uvrA pKM101	concentration not given, with and without S9		mutagenicity	negative
COc1cc(Nc2ncc(F)c(Nc3ccc4c(n3)NC(=O)C(C)(C)O4)n2)cc(OC)c1OC	Chymase (CMA1, Homo sapiens, UniProt P23946)					IC50	> 10 µM
O=C(NC(=O)c1ccccc1Cl)Nc1ccc(Cl)cc1	Plutella xylostella	leaf dipping		200 mg/L, 96 h		mortality	66.2 ± 1.3%
CCc1ccc(CC/C=C/c2ccc3c(c2)C(=O)CC3)cc1			Sprague-Dawley rat, female	oral, 450 mg/kg/day, 14 days		Reticulocyte percentage	2.55%
CN1CCCN(S(=O)(=O)c2ccc(-c3ccc4ccnc(Nc5ccc(OCc6cccc(F)c6)c(Cl)c5)c4c3)cc2)CC1	Trypanosoma cruzi		NIH 3T3, 2% FBS medium	96 h	baseline: NIH 3T3 TC50 over T. cruzi EC50	selectivity ratio	5
Cc1cc(C(=O)NC(C)(C)COc2cccc3c2C(N)=NS(=O)(=O)N3)cc(C)n1	Salmonella typhimurium	Ames test, initial	TA100	150 µg/plate	baseline: solvent control	revertant ratio	1.2
N#C[C@@]1(n2ccc(N)nc2=O)O[C@H](CO)[C@@H](O)[C@H]1O	Salmonella typhimurium		TA1535	50 µM, without S9		viability	102%

Compound	target or system	assay	system	conditions	how to read	measurement	value
COC(=O)[C@H]1[C@@H](O)[C@@]2(O)c3c(OC)cc(O[C@@H]4O[C@@H]([C@H](O)CO)CO[C@H]4OC)cc3O[C@@]2(c2ccc(OC)cc2)[C@@H]1c1ccccc1	hepatitis E virus		A549 persistently infected with HEV	2 nM, 72 h		viability	~30%
O=[N+]([O-])c1ccc(N2CCC(NCCC(O)c3ccc(F)c4ccccc34)CC2)c(C(F)(F)F)c1 (stereo not shown)	Salmonella typhimurium	genotoxicity, SOS/umu test	TA1535/pSK1002	0.004 mg/mL, 4 h, without S9, full range		induction factor	1.06
COc1cc2c(Oc3ccc4[nH]c(C)cc4c3F)ccnc2cc1OCC1(N)CC1			paediatric recurrent refractory sarcoma	8 mg		bone pain incidence	25%
[Cl-].[Cl-].[Pt+2].[Ru+2].c1ccc(-c2nc3ccccc3nc2-c2ccccn2)nc1.c1cnc2c(c1)ccc1cccnc12.c1cnc2c(c1)ccc1cccnc12	Danio rerio		embryos	90 µM, 72 h		hatching rate	3.33 ± 1.1%
Cc1ccnc2c1NC(=O)c1cccnc1N2C1CC1	HIV-1		MT4, IIIB wild type		baseline: CC50 over EC50	selectivity index	> 106
O=C(O)C[C@H](NC(=O)[C@H](CC(=O)O)NC(=O)[C@H](CC(=O)O)NC(=O)[C@H](CC(=O)O)NC(=O)[C@H](CC(=O)O)NC(=O)[C@H](CC(=O)O)NC(=O)[C@H](CC(=O)O)NC(=O)[C@H](CC(=O)O)NC(=O)[C@H](CC(=O)O)NC(=O)[C@H](CC(=O)O)NC(=O)[C@H](CC(=O)O)NC(=O)[C@H](CCCCNC(=O)c1ccc(C(=O)NCCOCCOB2BBBBBB3BBBB3B2)cc1)NC(=O)CN1CCN(CC(=O)O)CCN(CC(=O)O)CCN(CC(=O)O)CC1)C(=O)O [gallium-67 labelled]			ddY male mice, lung	intravenous, 37 kBq, 3 h		tissue uptake	0.07 %ID/g
Fc1ccc(C2=CCNCC2)cc1	Salmonella typhimurium	SOS/umu test	TA1535/pSK1002	1 mg/mL, 4 h, without S9, full range		survival	82.1%
CNC(=O)c1c(N(C)N=O)ncn1C	Salmonella typhimurium	mutagenicity, Ames plate incorporation	TA100	5000 µg/plate, without S9, methanol		revertant colonies per plate	117 ± 9
OC(CCN1CC=C(c2ccc(F)cc2)CC1)c1ccc(F)c2ccccc12 (stereo not shown)	Salmonella typhimurium	genotoxicity, SOS/umu test	TA1535/pSK1002	0.063 mg/mL, 4 h, with S9, full range		induction factor	1.1
COc1cccc(-c2n[nH]c(SCc3ccccn3)n2)c1OC	Escherichia coli	Ames test, plate incorporation	WP2 uvrA	0.50 mg/plate, with rat liver S9		revertant colonies per plate	41
C[C@H]1CN(c2n[nH]c3nc(N[C@H]4CC[C@H](NS(=O)(=O)CCC(F)(F)F)CC4)ncc23)CCO1	Mitotic checkpoint protein BUB3 (Homo sapiens, UniProt O43684)	Kinobeads competition, measured: BUB3		0.16 µM, unit not given	baseline: vehicle	remaining binding	1.04
C[C@]1(CO)Cc2ncn(-c3ccc(C#N)c(Cl)c3)c2C(=O)O1			human, plasma	2 mg single dose, geometric mean		Cmax	85.1 nM
CO[C@H]1C[C@@H]2CC[C@@H](C)[C@@](O)(O2)C(=O)C(=O)N2CCCC[C@H]2C(=O)O[C@H]([C@H](C)C[C@@H]2CC[C@@H](OC(=O)NCCOCCOCCOCCOCCOCCOCCOCCOCCC(=O)N3CCc4cc(Cn5nc(-c6ccc7oc(N)nc7c6)c6c(N)ncnc65)ccc4C3)[C@H](OC)C2)C[C@@H](O)[C@H](C)/C=C(\C)[C@@H](O)[C@@H](OC)C(=O)[C@H](C)C[C@H](C)/C=C/C=C/C=C/1C		phase 1 dose escalation, measured: fatigue	advanced solid tumour patients	intravenous, 16 mg weekly, any grade		TRAE incidence	50%
CC(=O)N1CCC(C(=O)N2CCN3C(=O)c4cc(-c5ccccc5)ccc4NC(=O)C3C2)CC1 (stereo not shown)	Escherichia coli		WP2 uvrA	50 µg/plate, with rat liver S9		revertants per plate	42.5
[Cl-].[Cl-].[Pt+2].[Ru+2].c1ccc(-c2nc3cc4ccccc4cc3nc2-c2ccccn2)nc1.c1cnc2c(c1)ccc1cccnc12.c1cnc2c(c1)ccc1cccnc12	Danio rerio		embryos	90 µM, 72 h		survival rate	60 ± 2.8%

Some of these lines once more:
Compound	target or system	assay	system	conditions	how to read	measurement	value
COc1cccc(-c2n[nH]c(SCc3ccccn3)n2)c1OC	Escherichia coli	Ames test, plate incorporation	WP2 uvrA	0.50 mg/plate, with rat liver S9		revertant colonies per plate	41
O=C(O)C[C@H](NC(=O)[C@H](CC(=O)O)NC(=O)[C@H](CC(=O)O)NC(=O)[C@H](CC(=O)O)NC(=O)[C@H](CC(=O)O)NC(=O)[C@H](CC(=O)O)NC(=O)[C@H](CC(=O)O)NC(=O)[C@H](CC(=O)O)NC(=O)[C@H](CC(=O)O)NC(=O)[C@H](CC(=O)O)NC(=O)[C@H](CC(=O)O)NC(=O)[C@H](CCCCNC(=O)c1ccc(C(=O)NCCOCCOB2BBBBBB3BBBB3B2)cc1)NC(=O)CN1CCN(CC(=O)O)CCN(CC(=O)O)CCN(CC(=O)O)CC1)C(=O)O [gallium-67 labelled]			ddY male mice, lung	intravenous, 37 kBq, 3 h		tissue uptake	0.07 %ID/g
[Cl-].[Cl-].[Pt+2].[Ru+2].c1ccc(-c2nccnc2-c2ccccn2)nc1.c1cnc2c(c1)ccc1cccnc12.c1cnc2c(c1)ccc1cccnc12	Danio rerio		embryos	90 µM, 0 h		survival rate	100%
